Measurements of several laboratories.
Numbered parts are unrelated; each lists some results of a single study. Changes are numbered by the printed parent chain.

Block 1 — target: CCNA2, cyclin fold, Cln2 fusion (human); method: yeast growth competition, sequencing; sample: yeast; notes: strong parent motif; relative to: not given; reading: higher = stronger binding
Starting sequence: RBL1 docking peptide (human); GSAKRRLFGEDPP; partner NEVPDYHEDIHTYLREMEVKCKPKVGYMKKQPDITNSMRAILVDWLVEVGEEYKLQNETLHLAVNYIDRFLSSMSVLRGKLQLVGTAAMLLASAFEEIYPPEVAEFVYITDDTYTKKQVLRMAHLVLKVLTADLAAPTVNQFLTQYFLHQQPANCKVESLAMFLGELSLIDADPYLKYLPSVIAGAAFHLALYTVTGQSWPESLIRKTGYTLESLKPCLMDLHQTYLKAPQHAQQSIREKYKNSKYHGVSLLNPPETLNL
| Variant | normalised enrichment score |
| --- | --- |
| GSQKRRLFGEDPP [A3Q] | -0.101 |
| GSAKRFLFGEDPP [R6F] | 1.11 |
| GSAKRRLFGEDFP [P12F] | 5.57 |
| GSAKRRLFGVDPP [E10V] | 5.07 |
| GSAHRRLFGEDPP [K4H] | 2.41 |
| GSAKRRLFDEDPP [G9D] | 5.99 |
| GSAKRRLFGEWPP [D11W] | 5.03 |
| GSAKRQLFGEDPP [R6Q] | 4.28 |
| GSAKRRNFGEDPP [L7N] | 1.22 |
| GWAKRRLFGEDPP [S2W] | 4.17 |
| GSAGRRLFGEDPP [K4G] | 0.91 |
| GPAKRRLFGEDPP [S2P] | 4.92 |
| FSAKRRLFGEDPP [G1F] | 6.33 |
| GSAKRRLFGRDPP [E10R] | 5.28 |
| GSNKRRLFGEDPP [A3N] | 0.694 |

Block 2 — method: protein binding microarray; form: double-stranded DNA, one strand shown; sample: in vitro; tested at: not given; relative to: not given; reading: higher = stronger binding
Target: Histone acetyltransferase KAT6A, winged helix 1, GST fusion (KAT6A, Homo sapiens, UniProt Q92794, residues 1-85)
Notes: 8-mer, flanks averaged, mean of 2 arrays, mostly near background
Target sequence (chain): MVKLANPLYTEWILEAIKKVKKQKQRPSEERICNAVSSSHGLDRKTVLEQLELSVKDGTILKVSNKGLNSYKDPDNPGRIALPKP
| Strand | E-score |
| --- | --- |
| AAGACCAT | -0.125 |
| AAAGATAT | -0.184 |
| CATACCAG | -0.237 |
| AGGAGACT | -0.2 |
| CCCCTACC | -0.185 |
| CATTCTGA | -0.18 |
| ATACCCAG | -0.125 |
| AGTCGATC | -0.14 |
| CGGAAACC | 0.178 |
| CTCTGTGC | 0.05 |
| ACGGACAG | 0.123 |
| CATATCCC | 0.0198 |
| GGGTGCGA | 0.18 |
| CTTTTACA | -0.0596 |
| AGGCATAA | -0.149 |
| ACAATGGA | -0.182 |
| CTTCACTC | -0.224 |

Block 3 — method: protein-binding microarray; form: double-stranded DNA, one strand shown; sample: in vitro; tested at: 2200 nM top; notes: 60-bp whole probe; with: salmon DNA 0.4 mg/ml; relative to: random background probes; reading: higher = stronger binding; shared flanks, not repeated: GCCTAGCAC … GTCTTGATTCGCTTGACGCTGCTG
Target: Interferon regulatory factor 7, full length, phosphomimetic (IRF7, Homo sapiens, UniProt Q92985, residues 1-503, S471D/S472D/S475D/S476D/S477D/S483D/S484D/S487D)
UniProt Q92985, sequence (whole entry, unmodified, looked up): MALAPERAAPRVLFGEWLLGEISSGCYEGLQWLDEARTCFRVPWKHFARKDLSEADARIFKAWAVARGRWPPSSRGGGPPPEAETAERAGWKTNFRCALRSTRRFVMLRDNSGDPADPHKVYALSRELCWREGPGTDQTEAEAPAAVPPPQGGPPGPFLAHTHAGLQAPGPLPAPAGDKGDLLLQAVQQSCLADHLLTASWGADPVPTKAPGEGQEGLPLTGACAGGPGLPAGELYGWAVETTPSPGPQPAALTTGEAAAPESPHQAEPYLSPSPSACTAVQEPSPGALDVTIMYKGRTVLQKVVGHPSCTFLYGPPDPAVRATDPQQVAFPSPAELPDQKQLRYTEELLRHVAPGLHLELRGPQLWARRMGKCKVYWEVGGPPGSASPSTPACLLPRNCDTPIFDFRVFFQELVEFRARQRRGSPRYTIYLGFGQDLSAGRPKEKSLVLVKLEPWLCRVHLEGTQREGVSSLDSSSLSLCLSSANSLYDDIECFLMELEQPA
| Strand | fitted relative affinity [z-score] |
| --- | --- |
| TTTGAACTGGGGACTGGATTAGTGCTA | -0.047 |
| GACGATCGCAGTTTCGAGACGTGCTAG | 3.05 |
| GACGAACTGGGGACTGGAGCCGTGCTA | -0.523 |
| ATAGAACTGGGGTATCGATTAGTGCTA | 0.131 |
| TTAGGATTCCTACTGCTTTAGTGCTAG | 0.614 |
| TTAGGTTTCGGACTGGGCTAGTGCTAG | 3.07 |
| TTAGTTATCGGTATCGGTTAGTGCTAG | 1.66 |
| ATCCCGCCTGCCCCACAGAAGTGCTAG | 0.724 |
| TTAGGTCTCTTTTTCCTTTAGTGCTAG | 1.93 |
| TTAGGATTGGGTTTCGGTTAGTGCTAG | 4.22 |

Further values, each from its own experiment
| Substance | target | test | test system | setting | scale | quantity | value |
| --- | --- | --- | --- | --- | --- | --- | --- |
| PhoQ, residues 284 288 289 292 302 303 SLCLSL | PhoP, residues 12 14 15 18 19 LFHKL (Escherichia coli, UniProt P23836) | Sort-seq, measured: YFP reporter | E. coli | PhoQ-PhoP variant library, with: 10 µM Mg2+ | relative to: high Mg2+ state, higher = stronger signaling | fold induction | 0.435 |

Excerpt of the above (block 2):
| Strand | E-score |
| --- | --- |
| ATACCCAG | -0.125 |
| AGTCGATC | -0.14 |
| CGGAAACC | 0.178 |
| CTCTGTGC | 0.05 |
| ACGGACAG | 0.123 |
